Assay results of several laboratories.
Numbered parts are unrelated; each lists some results of a single study.

Block 1
Target: Histone acetyltransferase KAT6A, winged helix 1, GST fusion (KAT6A, Homo sapiens, UniProt Q92794, residues 1-85)
Method: protein binding microarray
Form: double-stranded DNA, one strand shown
Matrix: in vitro
Concentration: not given
Setting: 8-mer, flanks averaged, mean of 2 arrays, mostly near background
Relative to: not given
Reading: higher = stronger binding
Construct (chain): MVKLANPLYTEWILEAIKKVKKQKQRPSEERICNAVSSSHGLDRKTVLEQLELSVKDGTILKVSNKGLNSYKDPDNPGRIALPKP
Strand | E-score
AAAACTGG | -0.144
CACACTCA | -0.249
CACCAGAC | -0.185
AGTCGGTG | -0.128
AAGAAGGA | -0.191
CACAGAGA | -0.13
ATAGTATG | -0.127
GGCGAAAC | -0.00443
CAACGATG | -0.288
AATTTCGG | 0.0734
CAATCGAG | -0.158
TGGTCCAA | 0.0492
GGTCGCGA | 0.246
ATGCCTGA | -0.203
GGACCTGA | 0.139
GAAACTTC | -0.179
AGGACCTA | -0.0203
GCACCGGC | 0.323
AAGATGAT | -0.213
ATGCGCAA | 0.24
CCTTTAAA | -0.0686

Block 2
Target: Sal-like protein 4, full length isoform A (SALL4, Homo sapiens, UniProt Q9UJQ4, residues 1-1053)
UniProt Q9UJQ4, sequence (whole entry, looked up): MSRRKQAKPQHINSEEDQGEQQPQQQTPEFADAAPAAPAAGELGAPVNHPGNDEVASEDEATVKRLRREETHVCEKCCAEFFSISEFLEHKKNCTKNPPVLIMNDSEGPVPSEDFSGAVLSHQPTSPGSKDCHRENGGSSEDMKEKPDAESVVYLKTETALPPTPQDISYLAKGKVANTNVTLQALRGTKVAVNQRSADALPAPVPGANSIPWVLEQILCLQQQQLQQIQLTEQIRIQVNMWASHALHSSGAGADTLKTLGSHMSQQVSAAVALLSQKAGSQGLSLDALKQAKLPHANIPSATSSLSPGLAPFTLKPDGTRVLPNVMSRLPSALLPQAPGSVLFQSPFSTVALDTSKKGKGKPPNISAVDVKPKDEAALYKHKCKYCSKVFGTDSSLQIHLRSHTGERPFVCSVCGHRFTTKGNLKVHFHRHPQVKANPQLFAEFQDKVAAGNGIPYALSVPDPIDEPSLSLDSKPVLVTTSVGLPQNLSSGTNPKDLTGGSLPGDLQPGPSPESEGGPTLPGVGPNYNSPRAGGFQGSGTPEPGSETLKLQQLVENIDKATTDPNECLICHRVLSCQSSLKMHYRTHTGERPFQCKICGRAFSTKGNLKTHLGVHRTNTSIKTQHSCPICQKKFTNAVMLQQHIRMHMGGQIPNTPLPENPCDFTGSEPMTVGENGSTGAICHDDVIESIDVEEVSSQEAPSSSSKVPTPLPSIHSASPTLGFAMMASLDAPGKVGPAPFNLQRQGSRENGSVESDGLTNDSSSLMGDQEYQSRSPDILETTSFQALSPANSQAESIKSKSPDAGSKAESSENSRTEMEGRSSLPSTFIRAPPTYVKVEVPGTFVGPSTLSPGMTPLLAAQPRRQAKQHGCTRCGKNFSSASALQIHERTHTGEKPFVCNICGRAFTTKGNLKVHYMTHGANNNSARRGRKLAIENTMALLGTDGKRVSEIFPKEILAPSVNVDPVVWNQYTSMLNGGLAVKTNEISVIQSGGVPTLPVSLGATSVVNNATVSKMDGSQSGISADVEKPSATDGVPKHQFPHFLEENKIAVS
Method: universal PBM
Form: double-stranded DNA, one strand shown
Matrix: in vitro
Concentration: 600 nM
Setting: 8-mer, flanks averaged, mean of replicates
Reading: higher = stronger binding
Strand | E-score
AAGCGACT | 0.0314
TCAATAGA | 0.167
CACACACG | -0.239
ATGTCGTC | -0.129
AAGCTACC | -0.077
AGTTTAAA | 0.212
GTCGAGGA | -0.189
TAAACGCA | 0.202
AGTGCACG | -0.203
ATGTTAGG | 0.195
CTAACAGA | 0.0449
CATTACAA | 0.29
ATACGGAG | 0.0601
GAGGAAAC | -0.102
CGTGTTTA | 0.0982
AGTTACCG | -0.00591
CGGTACAG | -0.138
GAACCACC | -0.199
AATTTTAT | 0.362
AATCGGAG | -0.0107
GTGCATAA | 0.238
ATCACACA | 0.127
AATTAATT | 0.38
CCCCTGGC | -0.269
AAAGATGG | 0.0751

Block 3
Target: RING finger protein unkempt homolog, zinc fingers 1-6, GST-SBP tag (UNK, Homo sapiens, UniProt Q9C0B0, residues 30-357)
Method: RNA Bind-n-Seq
Form: RNA
Matrix: in vitro
Concentration: not given
Setting: RNA with constant flanks, human and mouse sites, ends assumed
Relative to: input RNA pool
Reading: higher = stronger binding
All sequences stand within: GGGAGUUCUACAGUCCGACGAUC … CAACAGAGGAUUGAGCAUCA
Construct (chain): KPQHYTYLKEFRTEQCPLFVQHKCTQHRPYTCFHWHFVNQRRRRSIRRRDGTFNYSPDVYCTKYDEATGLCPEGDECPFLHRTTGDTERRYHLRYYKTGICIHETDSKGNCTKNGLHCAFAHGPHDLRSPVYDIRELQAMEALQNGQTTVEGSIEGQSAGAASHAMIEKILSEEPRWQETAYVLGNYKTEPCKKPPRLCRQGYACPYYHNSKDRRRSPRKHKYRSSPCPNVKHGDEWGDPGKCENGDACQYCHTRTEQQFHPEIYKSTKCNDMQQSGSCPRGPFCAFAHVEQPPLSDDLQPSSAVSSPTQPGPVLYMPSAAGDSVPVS
Strand | bound/input enrichment
AAGCAGAAGCUGAUGCUGAAAGAGAGCAAUUUUGCUGACAGUUAUUAUGACUACAUUUGUAUUAUUGACUUUGAAGCCACUUGUGAAGAAGGAAACCCACCUGAGUUUGUACAUGAAAUA | 0.149 ratio
GCACGGCGUUCUUCUUACCGAGUACAGUCAGAACCCCAGGAAGAGAGUUGGUAUGACUGUCACAGGGAAACAACUGCAAGUUUUUCUGAUACUUACCAGGAUUAUGAGGAGUACUGGAGA | 0.215 ratio
AACUGCAUCUGUGAUAUCGAUCACUGUUCCAACAUGGCACCCCUCUACAGUGACUCCUACUUAGUCUUCUGGGCCAUUUUCAACCUGGUGACCUUUGUGGUCAUGGUGGUUCUCUACGCU | 0.251 ratio
AGCUUCCGCCCGGAGGACUCCCUCAUUAGCAAUGACUCAGAAGUCAUCAUAGAGCCCAAGGAACAACUAGGACAUCAUGAUUCUCAGCAUUUGGAUAAAUUUGACAUUCCUUUUGAAAUG | 3.98 ratio
AGCAAACUACUGAUUGAAUCUCUUGAAAAAUAUGUGGUAUUGUGUGAAUCUCCACAGGAUAAAAGAACACUUCUUGUGAAUUGUCAGAAUAAGAGUCUUUCACAGUCUUUUGAAAAUCUU | 0.0688 ratio
UAUUCAUGCAGGGGCUGCCCCACGAGCUCAGGCAAGGCCCCCGUGGGCUUUGCGUAGUUCUAGUUCUUCAAUUUGGUUACUGCGCGAGUGUGUCCUGGAAGGAAUUUGUAUGGGAUUGUG | 0.299 ratio
UCAUCUACGUUUGCAAUUCCCCAGGAAUUAGAAAAAAGUGUACAGAUGUUUGAAUUAUUUUAUAGCCAACAUUUCAGUGGAAGGAAACUUACAUGGUUACAUUAUCUGUGUACAGGUGAA | 1.3 ratio
GCAUUUCCUAAUCCUGAGGCCAUAAGGGUUCCUUUAAGAGAAAAAUACCACUCUCUUCAACAGAAACUCAAACAUGGUGUUGUGAAAGGUCCUCAGACUGAGGAACUGAUGUCUACAGUC | 0.197 ratio

Block 4
Target: RNA binding protein fox-1 homolog 2, RRM domain, GST-SBP tag (RBFOX2, Homo sapiens, UniProt O43251-10, residues 100-194)
Method: RNA Bind-n-Seq
Form: RNA
Matrix: in vitro
Concentration: 365 nM
Setting: natural RNA segment, single round, ends assumed
Relative to: no-protein control
Reading: higher = stronger binding
All sequences stand within: GGGAGUUCUACAGUCCGACGAUC … UGGAAUUCUCGGGUGCCAA
Target sequence (chain): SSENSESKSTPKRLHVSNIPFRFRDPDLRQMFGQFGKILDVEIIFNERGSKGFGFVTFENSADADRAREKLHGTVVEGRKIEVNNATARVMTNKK
Strand | RBNS enrichment (R)
AACAGGAAGCAGCUGGGCUUUUAAGCAGAUCUGUCAGAAACCACAAGCUAUGCCAAGGUCAGAGCCACGGGCAUCUAGAAGGCAUCCACUCUGCUCAAGAGACGGAUGCA | 0.363
UUACUUUUCAGUUAGGUAACUGUGUGAUCCAGUUCUUCCAGCUGCUUCUAUAAUGAGGCACAUAUUAAUACAGUUUUUAUAUGGUAUCUAUGAAAGAGUUCACUUCAUAG | 0.653
AAGGAGGGGAGACCCCCACUCGCCUGCCUGCCUGCAUCACGGGGCCAUUGUGAGGUUGGGGGAAGACCUGGCCGUGGAGCUACAAGCUUGUGCGGAUGUCAGGGGACAUU | 0.89
UCCCUGAGUUCUGCCGGUGAGCUGCCGUCACUGGGAUGCGCCAAGGACCUUUCCUCCCCGGUCUCAGAGAUGCACAUCUCUUUGAGGAUCGGCUUGGCUGGAAGACAGGG | 0.616
AAAGAAAGGGUGGAUGGAUUGAAAAGAUUAGCCUCUGUCUCGGUGGCAGGUUCCCACCUCGCAAGCAAUUGGAAACAAAACUUUUGGGGAGUUUUAUUUUGCAUUAGGGU | 0.596
AAAUGAUCUAUCUUUUGGUCCACUUGCCUAAUUUUCCCAUUUUCCACCCCUGGCCCCCUACCCUUAGAUUCUCUGUGUUCCACAAGGAGACAUCAUGAGAUGUCUUCCUU | 0.318
UUGUUUACACACGAACUGCCACAUCCCCAAGCUCCGUUCUUGCCCCUCGUGUCCUAGGCCCAACCCAGCCUCCCAGACCUCACUUUCCCCAUCAGCAAUACCUGGUGUUC | 0.609
AGUGCUCCCAAGAGCAGCUCCUACGUGGUGCUGCCCGACACCAGCACAUGAGGGGCCGCUCUUCUGUCCUGUGGAGCUCCUGCCCUGCCAGCUCUCCAUGCUGAGCUGUG | 3
